Assay results collected from several papers.
Several values in a cell are separate wells, animals, samples, runs or records.
Target: TRAF2 and NCK-interacting protein kinase (TNIK, Homo sapiens, UniProt Q9UKE5)
Sequence of UniProt Q9UKE5 (whole entry, looked up): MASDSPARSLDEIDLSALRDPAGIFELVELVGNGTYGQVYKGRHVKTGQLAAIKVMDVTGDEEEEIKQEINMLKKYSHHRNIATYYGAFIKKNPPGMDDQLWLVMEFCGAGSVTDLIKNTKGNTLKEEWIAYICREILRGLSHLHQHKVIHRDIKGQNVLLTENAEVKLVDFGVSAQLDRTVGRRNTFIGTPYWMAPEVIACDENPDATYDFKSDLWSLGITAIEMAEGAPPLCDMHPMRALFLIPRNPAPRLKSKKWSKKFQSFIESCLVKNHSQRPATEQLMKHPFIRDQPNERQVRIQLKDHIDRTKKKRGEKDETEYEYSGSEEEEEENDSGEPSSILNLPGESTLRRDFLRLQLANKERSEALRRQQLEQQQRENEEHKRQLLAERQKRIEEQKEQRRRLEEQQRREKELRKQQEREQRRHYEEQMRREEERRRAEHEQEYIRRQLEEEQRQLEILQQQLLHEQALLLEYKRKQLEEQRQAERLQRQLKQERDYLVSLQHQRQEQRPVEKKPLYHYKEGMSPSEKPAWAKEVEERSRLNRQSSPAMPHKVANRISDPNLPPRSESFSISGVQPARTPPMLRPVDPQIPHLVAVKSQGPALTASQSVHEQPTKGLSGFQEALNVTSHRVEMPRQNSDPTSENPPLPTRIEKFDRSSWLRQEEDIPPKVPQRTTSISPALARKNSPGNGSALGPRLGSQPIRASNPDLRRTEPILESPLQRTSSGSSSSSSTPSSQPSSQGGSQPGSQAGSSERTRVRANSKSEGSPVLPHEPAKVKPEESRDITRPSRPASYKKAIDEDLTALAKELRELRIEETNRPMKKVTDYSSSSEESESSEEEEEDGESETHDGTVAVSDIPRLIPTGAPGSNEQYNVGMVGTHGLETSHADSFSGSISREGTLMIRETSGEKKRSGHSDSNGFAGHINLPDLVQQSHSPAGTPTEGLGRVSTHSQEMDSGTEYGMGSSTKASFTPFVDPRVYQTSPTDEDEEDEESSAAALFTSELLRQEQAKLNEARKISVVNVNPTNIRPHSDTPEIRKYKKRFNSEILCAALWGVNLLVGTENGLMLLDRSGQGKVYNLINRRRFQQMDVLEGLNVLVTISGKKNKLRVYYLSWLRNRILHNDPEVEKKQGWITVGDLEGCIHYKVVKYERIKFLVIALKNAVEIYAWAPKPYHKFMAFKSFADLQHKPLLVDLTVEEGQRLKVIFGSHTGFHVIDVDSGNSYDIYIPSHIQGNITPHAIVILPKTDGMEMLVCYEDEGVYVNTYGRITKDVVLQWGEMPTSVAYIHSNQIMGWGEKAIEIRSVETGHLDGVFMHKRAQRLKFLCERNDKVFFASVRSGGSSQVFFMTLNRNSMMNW

With `C=CC(=O)Nc1cccc(-c2cnc3[nH]cc(C(=O)NC(C)(C)C)c3n2)c1` the inhibition was 37% and 33% (kinase activity; 0.1 µM).
For `CNC1C[S+]2CC[S+]3CC[S+](C1)[Ru-4]321([N]=C=S)[n]2c3ccc(OC)cc3c3c4c(c5cc(F)c[n+]1c5c32)C(=O)NC4=O` (centres unmarked), the remaining binding was 47% (KinomeScan; 0.1 µM; relative to: untreated).
`CN1CCN(Cc2ccc(-c3ccc(CO[C@H]4CCC[C@@H]4NC(=O)c4cc(-c5cnn(C)c5)cnc4N)cc3)cc2)CC1` has an inhibition of 8% (enzyme activity, inhibitor; 0.1 µM).
`O=C(Cc1ccc(OCc2ccccc2)cc1)NC1(C(=O)O)CCN(C(=O)c2ccc(-c3cccc(Cl)c3)cc2)CC1`: “activity vs control” 155% (enzyme activity, inhibitor; 10 µM).
The remaining binding of `COc1cc(Nc2nccc(-c3cnn4nc(OC)ccc34)n2)cc(C(F)(F)F)c1` is reported as 100% (binding, competition with immobilised ligand; 1 µM).
With `CCN1CCN(Cc2ccc(NC(=O)c3ccc(C)c(NC(=O)c4cncc(-c5cccs5)c4)c3)cc2C(F)(F)F)CC1` the remaining binding was 18% (binding, competition with immobilised ligand; 1 µM).
For `CNC(=O)C1CCN(c2cc(C)c(F)cc2NC(=O)c2ccc(-c3cc(O)ccc3C)c(C)c2)CC1`, the remaining binding was 99% (binding, competition with immobilised ligand; 1 µM).
For `C=CC(=O)N1CCCC(n2c(=O)c3ncccc3n(Cc3ccc(Oc4ccccc4)cc3)c2=O)C1` (centres unmarked), the remaining binding was 93% (cell-free assay, competition with immobilised ligand; 1 µM).
`Nc1ncc2c(n1)-c1c([nH]c3ccc(C4=CCOCC4)cc13)CCC2` gave a remaining binding of 59% (binding, competition with immobilised ligand; 1 µM).
`CC(C)=CC1OC(C)(C)C2C=C3C(=O)C(Cl)=CC(O)C3C3C(O)C4OC4C(=O)C132` (centres unmarked) has a remaining binding of 88% (cell-free assay, competition with immobilised ligand; 10 µM).
With `CCn1cc(C(=O)O)c(=O)c2c(N)c(F)c(NC3CCCCC3)cc21` the inhibition was 2% (kinase activity; 0.1 µM, added: ATP at Km).
With `NC(=O)[C@@H](O)C[C@H]1CCc2sc3ncnc(O[C@H]4CC[C@H](N5CCOCC5)CC4)c3c21` the inhibition was 48% (enzyme activity, inhibitor; 10 µM).
Under “activity vs control”, `CNC(=O)C[C@H](Cc1ccc(C#N)cc1)NC(=O)c1cc(-c2ccc(CN[C@H](C)c3ccc(C)cc3)o2)ccc1Cl` is recorded as 100% (enzyme activity, inhibitor; 1 µM).
For `Cc1cccc(O[C@H]2CCC[C@@H](C(C)CNCc3ccncc3)C2)c1` (relative stereo), the inhibition was -1% (enzyme activity, inhibitor; 10 µM).

Repeated from above:
The remaining binding of `COc1cc(Nc2nccc(-c3cnn4nc(OC)ccc34)n2)cc(C(F)(F)F)c1` is reported as 100% (binding, competition with immobilised ligand; 1 µM).
